{"data": "Results from different studies", "note": "Numbered parts are unrelated; each lists some results of a single study.", "sequence of UniProt O94806 (whole entry, looked up)": "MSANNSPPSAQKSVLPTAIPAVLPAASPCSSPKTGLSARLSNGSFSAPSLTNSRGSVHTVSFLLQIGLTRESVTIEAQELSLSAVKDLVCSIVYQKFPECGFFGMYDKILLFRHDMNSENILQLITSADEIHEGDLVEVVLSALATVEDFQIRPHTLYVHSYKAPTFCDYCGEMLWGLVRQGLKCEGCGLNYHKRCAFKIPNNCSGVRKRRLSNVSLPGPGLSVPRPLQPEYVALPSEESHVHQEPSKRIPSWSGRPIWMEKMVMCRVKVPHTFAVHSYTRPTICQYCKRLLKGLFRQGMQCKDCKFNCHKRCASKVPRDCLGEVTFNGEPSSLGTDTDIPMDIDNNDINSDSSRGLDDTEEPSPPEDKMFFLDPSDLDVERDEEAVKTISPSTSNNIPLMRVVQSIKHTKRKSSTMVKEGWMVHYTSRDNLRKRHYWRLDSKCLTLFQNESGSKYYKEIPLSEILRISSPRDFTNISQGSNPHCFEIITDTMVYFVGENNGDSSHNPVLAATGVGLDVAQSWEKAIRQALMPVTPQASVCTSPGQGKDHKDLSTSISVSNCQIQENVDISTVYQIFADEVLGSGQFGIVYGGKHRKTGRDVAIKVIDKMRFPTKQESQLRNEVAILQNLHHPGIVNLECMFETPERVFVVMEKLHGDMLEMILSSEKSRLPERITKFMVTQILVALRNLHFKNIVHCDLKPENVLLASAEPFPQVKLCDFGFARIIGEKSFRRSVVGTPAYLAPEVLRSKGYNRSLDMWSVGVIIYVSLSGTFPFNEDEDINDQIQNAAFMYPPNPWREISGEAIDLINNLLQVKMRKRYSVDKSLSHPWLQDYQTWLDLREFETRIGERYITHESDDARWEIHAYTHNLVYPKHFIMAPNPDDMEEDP", "sequence of UniProt P10721 (whole entry, unmodified, looked up)": "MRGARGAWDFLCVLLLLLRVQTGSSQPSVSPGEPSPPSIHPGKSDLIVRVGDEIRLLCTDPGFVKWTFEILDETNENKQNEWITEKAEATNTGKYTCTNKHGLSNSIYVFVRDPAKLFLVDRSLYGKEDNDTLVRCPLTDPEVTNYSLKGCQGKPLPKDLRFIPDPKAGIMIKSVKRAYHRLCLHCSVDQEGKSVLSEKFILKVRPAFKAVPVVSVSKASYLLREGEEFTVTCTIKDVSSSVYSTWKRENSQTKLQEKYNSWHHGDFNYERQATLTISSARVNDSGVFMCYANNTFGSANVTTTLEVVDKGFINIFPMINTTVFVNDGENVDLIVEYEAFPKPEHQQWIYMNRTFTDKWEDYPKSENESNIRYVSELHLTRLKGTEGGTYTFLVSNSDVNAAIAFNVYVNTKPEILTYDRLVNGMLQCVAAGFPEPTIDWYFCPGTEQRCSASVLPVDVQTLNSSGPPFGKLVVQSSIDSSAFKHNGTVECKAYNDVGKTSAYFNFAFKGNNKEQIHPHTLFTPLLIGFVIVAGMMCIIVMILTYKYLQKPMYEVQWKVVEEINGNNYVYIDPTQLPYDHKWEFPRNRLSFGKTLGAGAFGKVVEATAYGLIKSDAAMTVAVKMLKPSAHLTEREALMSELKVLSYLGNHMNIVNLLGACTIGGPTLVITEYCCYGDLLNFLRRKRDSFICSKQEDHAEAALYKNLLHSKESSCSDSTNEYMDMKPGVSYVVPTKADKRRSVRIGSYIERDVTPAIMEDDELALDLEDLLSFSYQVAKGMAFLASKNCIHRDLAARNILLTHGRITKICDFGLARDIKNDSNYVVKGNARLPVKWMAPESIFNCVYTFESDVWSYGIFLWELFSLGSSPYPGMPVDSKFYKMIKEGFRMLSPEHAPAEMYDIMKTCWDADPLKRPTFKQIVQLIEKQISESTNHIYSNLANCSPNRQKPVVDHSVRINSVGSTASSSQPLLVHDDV"}
{"data": "Study 1", "target": "Prothrombin, mature alpha-thrombin (F2, Homo sapiens, UniProt P00734)", "method": "aptamer microarray, sandwich", "form": "DNA with 2'F-ANA", "matrix": "in vitro", "concentration": "200 nM", "setting": "whole 15-mer aptamer, many near background", "added": "Cy3 exosite-II aptamer, 400 nM", "direction": "higher = stronger binding", "sequence": "GGTTGGTGTGGTTGG"}
{"Modification": "2'F-ANA at 4 5 7 8 9 12 13 14 15", "mean fluorescence intensity": "48.7 a.u."}
{"Modification": "2'F-ANA at 1 2 3 6 7 9 12 13 14 15", "mean fluorescence intensity": "82.5 a.u."}
{"Modification": "2'F-ANA at 2 4 9 10 13", "mean fluorescence intensity": "76.5 a.u."}
{"Modification": "2'F-ANA at 1 2 5 6 8 10 13 14 15", "mean fluorescence intensity": "49.2 a.u."}
{"Modification": "2'F-ANA at 3 4 8 10 12 13 14 15", "mean fluorescence intensity": "154 a.u."}
{"Modification": "2'F-ANA at 1 2 3 5 6 7 8 10 14 15", "mean fluorescence intensity": "55.1 a.u."}
{"Modification": "2'F-ANA at 2 4 7 9 11 13", "mean fluorescence intensity": "264 a.u."}
{"Modification": "2'F-ANA at 1 4 7 8 10 13", "mean fluorescence intensity": "66.9 a.u."}
{"data": "Study 2", "target": "PABPC1L2, full length, GST fusion (mouse, UniProt A0ABA7IW68)", "method": "RNAcompete", "form": "RNA", "matrix": "in vitro", "concentration": "20 nM", "setting": "7-mer, probes averaged, single round", "baseline": "mean of 7-mers", "direction": "higher = stronger binding", "Construct (chain)": "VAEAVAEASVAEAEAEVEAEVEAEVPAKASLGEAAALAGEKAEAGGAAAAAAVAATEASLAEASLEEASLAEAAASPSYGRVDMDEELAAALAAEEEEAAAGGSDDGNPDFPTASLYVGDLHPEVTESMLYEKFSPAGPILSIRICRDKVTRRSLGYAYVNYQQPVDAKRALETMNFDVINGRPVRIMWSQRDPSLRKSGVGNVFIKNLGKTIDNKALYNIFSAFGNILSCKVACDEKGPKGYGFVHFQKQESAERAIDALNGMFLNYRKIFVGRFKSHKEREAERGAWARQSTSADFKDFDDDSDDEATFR"}
{"Sequence": "UUACAUA", "7-mer Z-score": -0.151}
{"Sequence": "UUAGAAA", "7-mer Z-score": 1.52}
{"Sequence": "ACGAGCU", "7-mer Z-score": -0.0301}
{"Sequence": "CCUCGCU", "7-mer Z-score": -0.452}
{"Sequence": "ACAGUUC", "7-mer Z-score": -0.224}
{"Sequence": "ACUGCUG", "7-mer Z-score": -0.108}
{"Sequence": "CCGGUAG", "7-mer Z-score": -0.133}
{"Sequence": "ACUGUCC", "7-mer Z-score": -0.233}
{"data": "Other studies, line by line"}
{"Compound": "COc1cc(-c2cn(C3CCc4c(F)cccc4N(CC(F)(F)F)C3=O)nn2)ccc1-n1cnc(C)c1 (stereo not drawn)", "target": "Mast/stem cell growth factor receptor Kit (KIT, Homo sapiens, UniProt P10721, V559D/V654A)", "assay": "cell-free assay, competition with immobilised ligand", "conditions": "1 µM", "quantity": "remaining binding", "value": "97%"}
{"Compound": "CS(=O)(=O)CCNCc1ccc(-c2ccc3ncnc(Nc4ccc(OCc5cccc(F)c5)c(Cl)c4)c3c2)o1", "target": "Serine/threonine-protein kinase D3 (PRKD3, Homo sapiens, UniProt O94806)", "assay": "enzyme activity, inhibitor", "conditions": "0.5 µM", "scale": "baseline: control", "quantity": "remaining activity", "value": "88.6%"}
{"note": "For quick reference, copied from above (study 2):"}
{"Sequence": "ACUGCUG", "7-mer Z-score": -0.108}
